Results of several laboratories.
Lines come from different studies, so protocols differ. ± marks the error that the study gave.

Compound | cell line | test | conditions | how to read | measurement | result
O=C(O)CC[C@H](NC(=O)N[C@@H](CCCCNC(=O)[C@H](Cc1ccc2ccccc2c1)NC(=O)[C@H]1CC[C@H](CNC(=O)CNC(=O)CNC(=O)CNC(=O)CN2CCN(CC(=O)O)CCN(C(CCC(=O)NCCC[P+](c3ccccc3)(c3ccccc3)c3ccccc3)C(=O)O)CCN(CC(=O)O)CC2)CC1)C(=O)O)C(=O)O (stereo partly drawn) [terbium-161 labelled] | PC-3 PIP (PSMA+) |  | concentration not given, internalized plus surface-bound |  | total cellular uptake | 64.5%
C/C1=C\CC[C@@]2(C)O[C@H]2[C@H]2OC(=O)C(C)[C@@H]2CC1 (stereo partly drawn) | GBM6 | cell growth or viability, resazurin |  |  | IC50 | > 500 µM
N=C(N)NCCCCCCN1CCC23c4c5ccc(O)c4OC2c2nc4ccccc4cc2CC3(O)C1C5 (stereo not drawn) | rat VTA neurons | ion current | 10 µM |  | holding current change | ~0 pA
CC1=CC(=O)C[C@@H]2[C@@H](O)C[C@H]3[C@@H]4CC[C@H](O)[C@@]4(C)CC[C@@H]3[C@@]12C | PMA-differentiated THP-1 | TNF-α production, ELISA | concentration not given, 4 h, with: LPS 50 ng/mL |  | inhibition | 53.7 ± 1.4%
Cc1[nH]c(=O)c(CNC(=O)c2ccc(C(F)(F)F)cc2)c2c1CCCC2 | Vero |  |  | reference: IC50 Vero over MIC M. tuberculosis | selectivity index | > 20
O=C(O)CC[C@H](NC(=O)N[C@@H](CCCCNC(=O)[C@H](Cc1ccc2ccccc2c1)NC(=O)[C@H]1CC[C@H](CNC(=O)CN2CCN(CC(=O)O)CCN(C(CCC(=O)NCCC[P+](c3ccccc3)(c3ccccc3)c3ccccc3)C(=O)O)CCN(CC(=O)O)CC2)CC1)C(=O)O)C(=O)O (stereo partly drawn) [terbium-161 labelled] | PC-3 PIP (PSMA+) |  | concentration not given, internalized plus surface-bound |  | total cellular uptake | 91.1%
Cc1cccc(C)c1N1Cc2cnc(Nc3ccc(N4CCN(C)CC4)cc3)nc2N(C23CC4CC(CC(C4)C2)C3)C1=O | normal human fibroblasts |  | concentration not given, with: UV-A |  | MMP secretion and expression | inhibited
CC1=CC(=O)C=C2CC[C@@H]3[C@H](CC[C@]4(C)C(=O)CC[C@@H]34)[C@@]12C | PMA-differentiated THP-1 | TNF-α production, ELISA | concentration not given, 4 h, with: LPS 50 ng/mL |  | inhibition | 71 ± 7.2%
Cc1[nH]c2cc(Cl)cc(Cl)c2c1CCN | NCI-H441 | cell growth or viability, ATP luminescence | 72 h |  | IC50 | 37 µM
